Results pooled from the literature.
Each line is one published result; not all experiments were run side by side. ± gives the spread as reported.

N=C(N)NCCC[C@@H]1NC(=O)[C@H](CCCCNC(=O)CCOCCOCCOCCOCCNC(=O)CC[C@H](NC(=O)CCOCCOCCOCCOCCNC(=O)CC[C@H](NC(=O)CN2CCN(CC(=O)O)CCN(CC(=O)O)CCN(CC(=O)O)CC2)C(=O)NCCOCCOCCOCCOCCC(=O)N[C@@H](CCC(=O)NCCOCCOCCOCCOCCC(=O)NCCCC[C@@H]2NC(=O)[C@@H](Cc3ccccc3)NC(=O)[C@H](CC(=O)O)NC(=O)CNC(=O)[C@H](CCCNC(=N)N)NC2=O)C(=O)NCCOCCOCCOCCOCCC(=O)NCCCC[C@@H]2NC(=O)[C@@H](Cc3ccccc3)NC(=O)[C@H](CC(=O)O)NC(=O)CNC(=O)[C@H](CCCNC(=N)N)NC2=O)C(=O)NCCOCCOCCOCCOCCC(=O)NCCCC[C@@H]2NC(=O)[C@@H](Cc3ccccc3)NC(=O)[C@H](CC(=O)O)NC(=O)CNC(=O)[C@H](CCCNC(=N)N)NC2=O)NC(=O)[C@@H](Cc2ccccc2)NC(=O)[C@H](CC(=O)O)NC(=O)CNC1=O [indium-111 labelled] — tissue uptake (female athymic nude mice, lungs; intravenous, 3 µCi, 0.5 h, U-87 MG glioma xenograft): 4.06 ± 0.88 %ID/g
CC(C)C[C@H](NC(=O)[C@@H]1CCCN1C(=O)[C@H](CCCCN)NC(=O)[C@@H](N)CO)C(=O)N1CCC[C@H]1C(=O)N[C@@H](CCC(=O)O)C(=O)N[C@H](C(=O)N[C@H](C(=O)N[C@@H](CC(=O)O)C(=O)N[C@@H](CCC(=O)O)C(=O)N[C@@H](Cc1ccc(O)cc1)C(=O)N[C@@H](Cc1cn(CCOCCOCCOCCNC(=O)CCc2ccc(O)c(CN(CCN(CC(=O)O)Cc3cc(CCC(=O)NCCCC[C@H](NC(=O)N[C@@H](CCC(=O)O)C(=O)O)C(=O)O)ccc3O)CC(=O)O)c2)nn1)C(=O)O)[C@@H](C)O)C(C)C [gallium-68 labelled] — standardized uptake value (NMRI nu/nu mice, LNCaP tumour, brain; 135.34 nmol/kg, low molar activity): 0.01 g/g
CCCC[C@H](NC(=O)CNC(=O)CNC(=O)c1ccc(NN)nc1)C(=O)N[C@H]1CC(=O)NCCCC[C@@H](C(N)=O)NC(=O)[C@H](Cc2c[nH]c3ccccc23)NC(=O)[C@H](CCCNC(=N)N)NC(=O)[C@@H](Cc2ccccc2)NC(=O)[C@H](Cc2c[nH]cn2)NC1=O [technetium-99m labelled] — uptake (C57 mouse, B16/F1 melanoma, tumor; 2 h, with: NDP-MSH 6.07 nmol blockade): 0.45 ± 0.29 %ID/g
CSCC[C@H](NC(=O)[C@H](CC(C)C)NC(=O)[C@H](Cc1c[nH]cn1)NC(=O)CNC(=O)[C@@H](NC(=O)[C@H](C)NC(=O)[C@H](Cc1c[nH]c2ccccc12)NC(=O)[C@H](CCC(N)=O)NC(=O)CCCCCNC(=O)CNC(=O)CNC(=O)CNC(=O)CSC(C)=O)C(C)C)C(N)=O [technetium-99m labelled] — tissue uptake (Swiss mouse, blood; intravenous, 18.5 MBq, 90 min): 0.12 ± 0.03 %ID/g
CC(=O)N[C@H](C(=O)N[C@@H](CCCCNC(=O)CCC(=O)OC[C@@H]1O[C@H](n2ccc(N)nc2=O)CS1)C(=O)N[C@H](C(=O)N[C@@H](CCCCNC(=O)CCC(=O)OC[C@@H]1O[C@H](n2ccc(N)nc2=O)CS1)C(=O)N[C@H](C(=O)N[C@@H](CCCCNC(=O)CCC(=O)OC[C@@H]1O[C@H](n2ccc(N)nc2=O)CS1)C(=O)N[C@@H](CCC(=O)O)C(=O)N[C@@H](CCC(=O)O)C(=O)N[C@@H](CCC(=O)O)C(N)=O)C(C)C)C(C)C)C(C)C — serum chemistry (mouse; concentration not given, liver and kidney markers): not toxic
N=C(N)NCCC[C@@H]1NC(=O)[C@H](CCCCNC(=O)CC[C@H](NC(=O)CCOCCOCCOCCOCCNC(=O)CC[C@H](NC(=O)CN2CCN(CC(=O)O)CCN(CC(=O)O)CCN(CC(=O)O)CC2)C(=O)NCCOCCOCCOCCOCCC(=O)N[C@@H](CCC(=O)NCCCC[C@@H]2NC(=O)[C@@H](Cc3ccccc3)NC(=O)[C@H](CC(=O)O)NC(=O)CNC(=O)[C@H](CCCNC(=N)N)NC2=O)C(=O)NCCCC[C@@H]2NC(=O)[C@@H](Cc3ccccc3)NC(=O)[C@H](CC(=O)O)NC(=O)CNC(=O)[C@H](CCCNC(=N)N)NC2=O)C(=O)NCCCC[C@@H]2NC(=O)[C@@H](Cc3ccccc3)NC(=O)[C@H](CC(=O)O)NC(=O)CNC(=O)[C@H](CCCNC(=N)N)NC2=O)NC(=O)[C@@H](Cc2ccccc2)NC(=O)[C@H](CC(=O)O)NC(=O)CNC1=O [indium-111 labelled] — tissue uptake (female athymic nude mice, blood; intravenous, 3 µCi, 24 h, U-87 MG glioma xenograft): 0.03 %ID/g
CCCC[C@H](NC(=O)CCCCCCCNC(=O)c1ccc(NN)nc1)C(=O)N[C@H]1CC(=O)NCCCC[C@@H](C(N)=O)NC(=O)[C@H](Cc2c[nH]c3ccccc23)NC(=O)[C@H](CCCNC(=N)N)NC(=O)[C@@H](Cc2ccccc2)NC(=O)[C@H](Cc2c[nH]cn2)NC1=O [technetium-99m labelled] — tissue uptake (C57 mouse, B16/F1 melanoma, heart; 2 h, with: NDP-MSH 10 µg (6.07 nmol) co-injected): 0.32 ± 0.09 %ID/g
COc1cc(/C=C(\C#N)C(=O)Nc2nnc(C(F)(F)F)s2)ccc1OC(=O)N1CCN(C(=O)CCCC(=O)NCCCC[C@@H]2NC(=O)[C@@H](Cc3ccc(O)cc3)NC(=O)[C@H](CC(=O)O)NC(=O)CNC(=O)[C@H](CCCNC(=N)N)NC2=O)CC1 — chemical stability (phosphate buffer; pH 7.4, 37 °C): stable
N=C(N)NCCC[C@@H]1NC(=O)[C@H](CCCCNC(=O)CNC(=O)CNC(=O)CNC(=O)CC[C@H](NC(=O)CCOCCOCCOCCOCCNC(=O)CC[C@H](NC(=O)CN2CCN(CC(=O)O)CCN(CC(=O)O)CCN(CC(=O)O)CC2)C(=O)NCCOCCOCCOCCOCCC(=O)N[C@@H](CCC(=O)NCC(=O)NCC(=O)NCC(=O)NCCCC[C@@H]2NC(=O)[C@@H](Cc3ccccc3)NC(=O)[C@H](CC(=O)O)NC(=O)CNC(=O)[C@H](CCCNC(=N)N)NC2=O)C(=O)NCC(=O)NCC(=O)NCC(=O)NCCCC[C@@H]2NC(=O)[C@@H](Cc3ccccc3)NC(=O)[C@H](CC(=O)O)NC(=O)CNC(=O)[C@H](CCCNC(=N)N)NC2=O)C(=O)NCC(=O)NCC(=O)NCC(=O)NCCCC[C@@H]2NC(=O)[C@@H](Cc3ccccc3)NC(=O)[C@H](CC(=O)O)NC(=O)CNC(=O)[C@H](CCCNC(=N)N)NC2=O)NC(=O)[C@@H](Cc2ccccc2)NC(=O)[C@H](CC(=O)O)NC(=O)CNC1=O [indium-111 labelled] — tumour to tissue ratio (athymic nude mice, female, U-87 MG glioma xenograft, tumour and lungs; intravenous, 4 h; reference: tumour over lungs): 5.07 ± 1.52

For quick reference, copied from above:
N=C(N)NCCC[C@@H]1NC(=O)[C@H](CCCCNC(=O)CCOCCOCCOCCOCCNC(=O)CC[C@H](NC(=O)CCOCCOCCOCCOCCNC(=O)CC[C@H](NC(=O)CN2CCN(CC(=O)O)CCN(CC(=O)O)CCN(CC(=O)O)CC2)C(=O)NCCOCCOCCOCCOCCC(=O)N[C@@H](CCC(=O)NCCOCCOCCOCCOCCC(=O)NCCCC[C@@H]2NC(=O)[C@@H](Cc3ccccc3)NC(=O)[C@H](CC(=O)O)NC(=O)CNC(=O)[C@H](CCCNC(=N)N)NC2=O)C(=O)NCCOCCOCCOCCOCCC(=O)NCCCC[C@@H]2NC(=O)[C@@H](Cc3ccccc3)NC(=O)[C@H](CC(=O)O)NC(=O)CNC(=O)[C@H](CCCNC(=N)N)NC2=O)C(=O)NCCOCCOCCOCCOCCC(=O)NCCCC[C@@H]2NC(=O)[C@@H](Cc3ccccc3)NC(=O)[C@H](CC(=O)O)NC(=O)CNC(=O)[C@H](CCCNC(=N)N)NC2=O)NC(=O)[C@@H](Cc2ccccc2)NC(=O)[C@H](CC(=O)O)NC(=O)CNC1=O [indium-111 labelled] — tissue uptake (female athymic nude mice, lungs; intravenous, 3 µCi, 0.5 h, U-87 MG glioma xenograft): 4.06 ± 0.88 %ID/g
